Published values of several laboratories.
± marks the error that the study gave.

| SMILES | target or system | assay | test system | conditions | measurement | result |
| --- | --- | --- | --- | --- | --- | --- |
| CC(=O)Oc1ccccc1C(=O)[O][Pt]([NH2])([NH2])([Cl])([Cl])[O]C(=O)CCCc1ccccc1 | BCPAP | cell growth or viability, MTT | – | 72 h | IC50 | 0.06 µM |
| CCN(CC)CCCSC(=S)N1CCN(C(=O)/C=C/c2coc3ccc(F)cc3c2=O)CC1 | tomato spotted wilt virus | viral infection, half-leaf method | Nicotiana glutinosa | 500 µg/mL | protective effect | 61.5 ± 4.2% |
| COC(=O)[C@H]1[C@H]2C[C@H]3O[C@@]4(CCN3C[C@H]2C[C@@H](OC(=O)c2cc(OC)c(OC)c(OC)c2)[C@@H]1OC)C(=O)Nc1cc(OC)c(-c2ccc(F)cc2)cc14 | RS4-11 | cell growth or viability, trypan blue | – | 72 h | IC50 | 3.52 µM |
| CCCC(CCC)C(=O)NCCNC(=O)[C@]1(C)[C@@H]2CC[C@]3(C)[C@H](C(=O)C=C4[C@@H]5[C@@H](C)[C@H](C)CC[C@]5(C)CC[C@]43C)[C@@]2(C)CC[C@H]1OC(C)=O | HBE | cell growth or viability, MTT | – | 48 h | IC50 | > 30 µM |
| [Cl][Au-][c]1n(-c2c(C(c3ccccc3)c3ccccc3)cc(C(c3ccccc3)c3ccccc3)cc2C(c2ccccc2)c2ccccc2)c2c([n+]1-c1c(C(c3ccccc3)c3ccccc3)cc(C(c3ccccc3)c3ccccc3)cc1C(c1ccccc1)c1ccccc1)-c1cccc3cccc-2c13 | 2008 | cell growth, MTT | – | 72 h | IC50 | > 50 µM |
| Cc1cc(N)c2cc(NC(=O)C(=O)Nc3ccc4nc(C)cc(N)c4c3)ccc2n1 | CHO wild type | FGF2 binding to heparan sulfate, inhibitor, flow cytometry | – | on ice, with: biotinylated FGF2 2.5 nM | IC50 | 0.9 ± 0.08 µM |
| CCN(CC)CCCSC(=S)N1CCN(C(=O)/C=C/c2coc3cc(F)ccc3c2=O)CC1 | tomato spotted wilt virus | viral infection, half-leaf method | Nicotiana glutinosa | 500 µg/mL | curative effect | 56.2 ± 6.1% |
| CC1=C2[O][Ru-]([Cl])[O+]=C2C=CN1CCCN1C=CC2=[O+][Ru-]([Cl])[O]C2=C1C.Cc1ccc(C(C)C)cc1.Cc1ccc(C(C)C)cc1 | SISO | cell growth or viability, crystal violet | – | 96 h | IC50 | 21.2 µM |
| CC1(C)CCN(Cc2ccc(C(=O)NC[C@]3(O)CCCN(c4cc(NCc5ccccc5)ncn4)C3)c(O)c2)CC1 | U2OS | m6A mRNA level, UPLC-MS/MS | – | 16 h | IC50 | 9 µM |
| O=c1[nH]c(=O)n([C@@H]2O[C@H](CO)[C@@H](O)[C@H](F)[C@H]2O)cc1F | Molt4/C8 | cell growth or viability | – | – | IC50 | > 200 µM |
| Cc1cc(/C=C/C#N)cc(C)c1Oc1cc(Nc2ccc(C#N)cn2)nc2ccncc12 | HuCC-A1 | – | – | 48 h | IC50 | > 120 µM |
| CCOP(=O)(OCC)C(Cc1cccc(F)c1F)Nc1cccc(C)c1 (stereo not drawn) | T98G | cell growth or viability, MTT | – | 48 h | IC50 | 71.3 µM |
| COc1ccc2cc3[n+](cc2c1OCc1cn(Cc2ccc(Cl)cc2Cl)nn1)CCc1cc2c(cc1-3)OCO2 | SW1990 | cell growth or viability, MTT | – | – | IC50 | 28.1 µM |
| CCCC/C=N/NC(=O)c1cc2cc(Nc3nccc(-c4cccnc4)n3)ccc2[nH]1 | HepG2, HeLa, MDA-MB-231, MCF7 | cell growth, MTT | – | cancer cell lines as group | IC50 | > 50 µM |
| Cc1cnc2c(ccc3c(C)c(C)cnc32)c1C.O=C([O-])Cc1ccccc1Nc1c(Cl)cccc1Cl.O=C([O-])Cc1ccccc1Nc1c(Cl)cccc1Cl.[Cu+2] | HMLER breast cancer cells | cytotoxicity, MTT | – | 72 h | IC50 | 0.133 ± 0.008 µM |
| CC1(C)Cc2c(-c3ccccc3)c(-c3ccc(Cl)cc3)c(CC(=O)NCC(=O)O)n2C1 | human Macrophage | PGE2 release, inhibitor | – | 24 h, LPS-stimulated | IC50 | 0.47 µM |
| [Cl][Au].[Se]=c1n(C23CC4CC(CC(C4)C2)C3)ccn1C12CC3CC(CC(C3)C1)C2 | human ovarian cancer cells | cell viability, MTT | – | 72 h | IC50 | 2.3 ± 0.4 µM |
| N=C(N/N=C/c1ccccn1)N/N=C/c1ccccn1 | KP-4 | cell growth or viability, crystal violet | – | 72 h | IC50 | 5.4 µM |
| CC(C)Oc1ccc(S(=O)(=O)c2ccc(Oc3ccc(C(=O)C(Cl)Cl)cc3[N+](=O)[O-])cc2)cc1 | NCI-H1650 | cell growth or viability, MTT | – | 72 h | IC50 | 0.33 to 0.88 µM |
| COc1ccc(-c2cc(=O)c3c(O)cc(O[C@@H]4O[C@H](CO)[C@@H](O)[C@H](O)[C@H]4O)cc3o2)cc1OC | HCT-116 p53-/- colon cancer | cytotoxicity, resazurin reduction | – | 72 h | IC50 | 28 ± 1.43 µM |
| CCCCCC(=O)NCCNC(=O)[C@@]1(C)[C@H](O)CC[C@@]2(C)[C@H]1CC[C@]1(C)[C@@H]2C(=O)C=C2[C@@H]3[C@@H](C)[C@H](C)CC[C@]3(C)CC[C@]21C | HBE | cell growth or viability, MTT | – | 48 h | IC50 | 14.4 µM |

A few entries again:
| SMILES | target or system | assay | test system | conditions | measurement | result |
| --- | --- | --- | --- | --- | --- | --- |
| CCCC/C=N/NC(=O)c1cc2cc(Nc3nccc(-c4cccnc4)n3)ccc2[nH]1 | HepG2, HeLa, MDA-MB-231, MCF7 | cell growth, MTT | – | cancer cell lines as group | IC50 | > 50 µM |
| Cc1cc(/C=C/C#N)cc(C)c1Oc1cc(Nc2ccc(C#N)cn2)nc2ccncc12 | HuCC-A1 | – | – | 48 h | IC50 | > 120 µM |
